Assay results from different studies.
Each line is one published result; not all experiments were run side by side. Numbers after ± are the reported error.

O=C(O)c1ccc(/C=C2\SC(=S)N(Cc3cccc(C(F)(F)F)c3)C2=O)cc1
half-life (C57BL/6J mice, blood; dose not given): 2.4 h

CC(C)(C)ONc1nc(Nc2ccnc(C(F)(F)F)c2)nc(-c2cccc(C(F)(F)F)n2)n1
half-life (female Balb/cA nude mice xenograft, plasma; oral, 54.14 mg/kg): 9.4 h

COC(=O)C1=CNC=C(C(=O)OC)C1c1ccc(F)c(C(F)(F)F)c1
half-life (male mice, plasma and brain; intraperitoneal, 25 mg/kg): 2.24 to 2.48 h

COc1cc2c(cc1OC)CC(=O)N(C[C@H]1CCCN(CCOc3ccc(F)cc3)C1)CC2
half-life (male C57BL/6 mice; intraperitoneal, 20 mg/kg): 0.58 h

CCN(CC)CC#CCNc1ccnc2cc(Cl)ccc12
half-life (male CD1 mice, plasma; oral, 20 mg/kg): 2.1 h

O=[N][Fe]1([N]=O)[S](CCO)[Fe]([N]=O)([N]=O)[S]1CCO
half-life (C57BL/6JNarl mice, stomach; oral, 13.25 mg/kg): 2.7 ± 0.6 h

CCCCCCc1ccc(Oc2ccccc2C#N)c(O)c1
half-life (CD-1 mice, plasma; subcutaneous, 100 mg/kg): 3.8 ± 2.4 h

CC=C1C(OC2OC(CO)C(O)C(O)C2O)OC=C(C(=O)OC)C1CC(=O)OCC1OC(OCCc2ccc(O)cc2)C(O)C(O)C1O (stereo not drawn)
half-life (pseudo-germfree mice, plasma; oral, 109.2 mg/kg): 1.38 h

O=C(NCCN1C(=O)C=CC1=O)[O][Pt-2]12([O]C(=O)NCCN3C(=O)C=CC3=O)([NH2+][C@@H]3CCCC[C@H]3[NH2+]1)[O]C(=O)C(=O)[O]2
half-life (BALB/c mice, serum; intravenous, equimolar to 9 mg/kg oxaliplatin): 55.7 h

COc1cccc(OCCN2CCC[C@H](CN3CCc4cc(OC)c(OC)cc4CC3=O)C2)c1
half-life (female C57BL/6 mice; intraperitoneal, 20 mg/kg): 0.65 h

CCNCC#CCNc1ccnc2cc(Cl)ccc12
half-life (male CD1 mice, plasma; intravenous, 10 mg/kg of DAQ, compound as metabolite): 4.8 h

CC(=O)N1CCC(NC(=O)Nc2ccc(OC(F)(F)F)cc2)CC1
half-life (C57BL/6J mice, male, wild type; subcutaneous, 1 mg/kg, together with: TPPU 0.3 mg/kg): 8.75 h

Some of these lines once more:
O=C(NCCN1C(=O)C=CC1=O)[O][Pt-2]12([O]C(=O)NCCN3C(=O)C=CC3=O)([NH2+][C@@H]3CCCC[C@H]3[NH2+]1)[O]C(=O)C(=O)[O]2
half-life (BALB/c mice, serum; intravenous, equimolar to 9 mg/kg oxaliplatin): 55.7 h
